Published values gathered from unrelated publications.
Each line is one published result; not all experiments were run side by side. ± gives the spread as reported.

SMILES	test	test system	conditions	scale	measurement	value
CCCC[C@H](NC(=O)[C@@H](NC(=O)[C@H](CC(=O)O)NC(=O)[C@H](CCC(N)=O)NC(=O)[C@H](CC(C)C)NC(=O)[C@H](CC(C)C)NC(=O)[C@H](CCCN)NC(=O)[C@H](CCCNC(=N)N)NC(=O)[C@H](C)NC(=O)[C@H](CO)NC(=O)[C@H](CC(C)C)NC(=O)[C@H](CCC(N)=O)NC(=O)[C@H](CC)NC(=O)[C@H](CC(C)C)NC(=O)[C@@H](NC(=O)[C@H](CCCN)NC(=O)[C@H](CCCNC(=N)N)NC(=O)[C@H](Cc1ccc(O)cc1)NC(=O)[C@H](CO)NC(=O)[C@H](CCC(N)=O)NC(=O)[C@@H](NC(=O)[C@H](Cc1ccccc1)NC(=O)[C@@H](NC(=O)[C@H](C)NC(=O)[C@H](CC(=O)O)NC(=O)[C@H](C)NC(=O)[C@H](Cc1ccc(O)cc1)NC)[C@@H](C)CC)[C@@H](C)O)C(C)C)[C@@H](C)CC)C(=O)N[C@@H](CC(=O)O)C(=O)NCCCCNC(=N)N	GH release	rat, male, serum	intravenous, 1 µg/kg, 15 min	reference: reference GHRH agonist JI-38	relative potency	1.26
BP(=O)(OP(=O)([O-])OC[C@H]1O[C@@H](n2c[n+](C)c3c(O)nc(N)nc32)[C@H](O)[C@@H]1O)OP(=O)(O)OC[C@H]1O[C@@H](n2cnc3c(=O)[nH]c(N)nc32)[C@H](O)[C@@H]1O (stereo partly shown)	cap-dependent translation	rabbit reticulocyte lysate	no cap pre-incubation	reference: m7GpppG over compound	IC50 ratio	6.3 fold
O=C1CC(c2ccc(O)cc2)Oc2c1c(O)cc1oc3cc(O)c(O)cc3c21 (racemic)	ABTS scavenging, absorbance				EC50	1190 µM
CCCCSc1nnc(-c2ccc(N)cc2)o1	nitric oxide scavenging				IC50	38.5 ± 6.1 µM
C[C@H](CCC(=O)O)[C@H]1CC[C@H]2[C@@H]3CC[C@@H]4C[C@H](OS(=O)(=O)O)CC[C@]4(C)[C@H]3CC[C@]12C		pancreatic acinar cells, Gpr39 knock-out, mouse	500 µM, added: caerulein 1 nM	reference: wild type	amylase release	decreased
CCCC[C@H](NC(=O)[C@@H](NC(=O)[C@H](CC(=O)O)NC(=O)[C@H](CCC(N)=O)NC(=O)[C@H](CC(C)C)NC(=O)[C@H](CC(C)C)NC(=O)[C@H](CCCN)NC(=O)[C@H](CCCNC(=N)N)NC(=O)[C@H](C)NC(=O)[C@H](CO)NC(=O)[C@H](CC(C)C)NC(=O)[C@H](CCC(N)=O)NC(=O)[C@H](CC)NC(=O)[C@H](CC(C)C)NC(=O)[C@@H](NC(=O)[C@H](CCCN)NC(=O)[C@H](CCCNC(=N)N)NC(=O)[C@H](Cc1ccc(O)cc1)NC(=O)[C@H](CO)NC(=O)[C@H](CCC(N)=O)NC(=O)[C@@H](NC(=O)[C@H](Cc1ccccc1)NC(=O)[C@@H](NC(=O)[C@H](C)NC(=O)[C@H](CC(=O)O)NC(=O)[C@@H](C)NC(=O)[C@H](Cc1ccc(O)cc1)NC)[C@@H](C)CC)[C@@H](C)O)C(C)C)[C@@H](C)CC)C(=O)N[C@@H](CC(=O)O)C(=O)N[C@@H](CCCNC(=N)N)C(=O)NC	GH release	rat, male, serum	intravenous, 1 µg/kg, 15 min	reference: reference GHRH agonist JI-38	relative potency	1.35
[2H]C([2H])([2H])C(c1cc2nnc(-c3cc(F)ccc3F)n2nc1OCc1ncnn1C)(C([2H])([2H])[2H])C([2H])([2H])[2H]		amygdala-kindled Wistar rats, cortex	oral, 100 mg/kg, 2 h before stimulation	reference: baseline	afterdischarge duration change	-76%
O=C1/C(=C/c2ccc(O)cc2)Oc2c1c(O)cc(O)c2-c1ccc(O)c(O)c1	ABTS scavenging, absorbance				EC50	1080 µM
C=C(c1ccc(C(=O)O)c(F)c1)c1cc2c(cc1C)C(C)(C)C=CC2(C)C	RNA sequencing, measured: Mpeg1	rat, brain	dose not given, 24 h	reference: vehicle	log2 fold change	-0.4
CC(=N)N(C)c1ccc(C(=O)Nc2ccc(F)cc2C(=O)Nc2ccc(Cl)cn2)cc1		human plasma			concentration doubling prothrombin time	1.5 ± 0.3 µM
COc1cc2c(cc1OC)CC(=O)N(C[C@H]1CCCN(CCOc3ccc(F)cc3)C1)CC2	VTA dopamine neurons	CSDS-susceptible male mice	intraperitoneal, 10 mg/kg	reference: baseline	burst firing	decreased
CCCCC1NC(=O)c2ccccc21 (racemic)	thrombosis	mouse, carrageenan-induced thrombosis	oral, 20 mg/kg daily for 2 days, 48 h after carrageenan		black tail occurrence	50%
N[C@@H](CC(=O)O)C(=O)N1CCC[C@H]1C(=O)NCC(=O)NCC(=O)O	diketopiperazine formation, Arrhenius plot, ESI-MS	1-propanol	70, 80, 90 °C, 0.5% acetic acid		activation energy	17 ± 0.239 kcal/mol
COc1c2c(cc3oc(C)cc(=O)c13)O[C@H](C(C)(C)O[C@@H]1O[C@H](CO)[C@@H](O)[C@H](O)[C@H]1O)C2	analgesia	mouse	oral, 4 mg/kg, 1.5 h		hot plate latency	9.76 ± 3.5 s
CCCC[C@H](NC(=O)[C@@H](NC(=O)[C@H](CC(=O)O)NC(=O)[C@H](CCC(N)=O)NC(=O)[C@H](CC(C)C)NC(=O)[C@H](CC(C)C)NC(=O)[C@H](CCCN)NC(=O)[C@H](CCCNC(=N)N)NC(=O)[C@H](C)NC(=O)[C@H](CO)NC(=O)[C@H](CC(C)C)NC(=O)[C@H](CCC(N)=O)NC(=O)[C@H](CC)NC(=O)[C@H](CC(C)C)NC(=O)[C@@H](NC(=O)[C@H](CCCN)NC(=O)[C@H](CCCNC(=N)N)NC(=O)[C@H](Cc1ccc(O)cc1)NC(=O)[C@H](CO)NC(=O)[C@H](CC(N)=O)NC(=O)[C@@H](NC(=O)[C@H](Cc1c(F)c(F)c(F)c(F)c1F)NC(=O)[C@@H](NC(=O)[C@H](C)NC(=O)[C@H](CC(=O)O)NC(=O)[C@@H](C)NC(=O)CCc1ccc(O)cc1)[C@@H](C)CC)[C@@H](C)O)C(C)C)[C@@H](C)CC)C(=O)N[C@@H](CO)C(=O)N[C@@H](CCCNC(=N)N)C(=O)NCCCC(N)=O	GH release	male rat, serum	subcutaneous, dose not given, 30 min	reference: GHRH(1-29)NH2	relative potency	152
CC(C)C[C@H](NC(=O)[C@H](CCCNC(=N)N)NC(=O)CNC(=O)[C@@H](N)CC(C)C)C(=O)N[C@@H](CO)C(=O)N[C@@H](CCC(N)=O)C(=O)N[C@@H](CCC(=O)O)C(=O)N[C@@H](CC(C)C)C(=O)N[C@@H](Cc1c[nH]cn1)C(=O)N[C@@H](CCCNC(=N)N)C(=O)N[C@@H](CC(C)C)C(=O)N[C@@H](CCC(N)=O)C(=O)N[C@H](C(=O)N[C@@H](Cc1ccc(O)cc1)C(=O)N1CCC[C@H]1C(=O)N[C@@H](CCCNC(=N)N)C(=O)N[C@H](C(=O)N[C@@H](CC(N)=O)C(=O)N[C@H](C(=O)NCC(=O)N[C@@H](CO)C(=O)N[C@@H](CC(N)=O)C(=O)N[C@H](C(=O)N[C@@H](Cc1ccc(O)cc1)C(N)=O)[C@@H](C)O)[C@@H](C)O)[C@@H](C)O)[C@@H](C)O	Western blot	TgCRND8 mice, brain	icv, dose not given, 5 months	reference: vehicle	APP protein level	no effect
C[C@@H](O)[C@@H]1NC(=O)[C@H](CCCCN)NC(=O)[C@@H](Cc2ccc(NC(N)=O)cc2)NC(=O)[C@H](Cc2ccc(NC(=O)[C@@H]3CC(=O)NC(=O)N3)cc2)NC(=O)[C@H](NC(=O)[C@H](Cc2ccc(Cl)cc2)NC(=O)CN2CCN(CC(=O)O)CCN(CC(=O)O)CCN(CC(=O)O)CC2)CSSC[C@@H](C(=O)N[C@H](Cc2ccc(O)cc2)C(N)=O)NC1=O [gallium-68 labelled]	PET/CT	human neuroendocrine tumour patients, bone lesions	60 min		SUVmax	6 ± 3
CCCC[C@H](NC(=O)[C@@H](NC(=O)[C@H](CC(=O)O)NC(=O)[C@H](CCC(N)=O)NC(=O)[C@H](CC(C)C)NC(=O)[C@H](CC(C)C)NC(=O)[C@H](CCCN)NC(=O)[C@H](CCCNC(=N)N)NC(=O)[C@H](C)NC(=O)[C@H](CO)NC(=O)[C@H](CC(C)C)NC(=O)[C@H](CCC(N)=O)NC(=O)[C@H](CC)NC(=O)[C@H](CC(C)C)NC(=O)[C@@H](NC(=O)[C@H](CCCN)NC(=O)[C@H](CCCNC(=N)N)NC(=O)[C@H](Cc1ccc(O)cc1)NC(=O)[C@H](CO)NC(=O)[C@H](CC(N)=O)NC(=O)[C@@H](NC(=O)[C@H](Cc1ccccc1)NC(=O)[C@@H](NC(=O)[C@H](C)NC(=O)[C@H](CC(=O)O)NC(=O)[C@@H](CC)NC(=O)CCc1ccc(O)cc1)[C@@H](C)CC)[C@@H](C)O)C(C)C)[C@@H](C)CC)C(=O)N[C@@H](CO)C(=O)N[C@@H](CCCNC(=N)N)C(=O)NCCCC(N)=O	GH release	rat, male, serum	intravenous, 1 µg/kg, 5 min	reference: reference GHRH agonist JI-38	relative potency	1.55
O=C([O-])CN1CCN(CC(=O)[O-])CCN(CC(=O)NC[C@H]2CC[C@H](C(=O)N[C@H](Cc3cnc4ccccc4c3)C(=O)NCCCC[C@H](NC(=O)N[C@@H](CCC(=O)O)C(=O)O)C(=O)O)CC2)CCN(CC(=O)[O-])CC1.[64Cu+2]	PET/CT imaging	human, PSMA-positive lymph node lesions	148 MBq, 2 h post-injection		SUVmax	7.32
COc1cc2c(cc1OC)-c1cc3ccc(OC)c(OC)c3c[n+]1CC2		rat, STZ-induced diabetic, serum	oral, 12 mg/kg, day 28		ALP activity	152 ± 4.15 U/L
CCCC[C@H](NC(=O)[C@@H](NC(=O)[C@H](CC(=O)O)NC(=O)[C@H](CCC(N)=O)NC(=O)[C@H](CC(C)C)NC(=O)[C@H](CC(C)C)NC(=O)[C@H](CCCN)NC(=O)[C@H](CCCNC(=N)N)NC(=O)[C@H](C)NC(=O)[C@H](CO)NC(=O)[C@H](CC(C)C)NC(=O)[C@H](CCC(N)=O)NC(=O)[C@H](CC)NC(=O)[C@H](CC(C)C)NC(=O)[C@@H](NC(=O)[C@H](CCCN)NC(=O)[C@H](CCCNC(=N)N)NC(=O)[C@H](Cc1ccc(O)cc1)NC(=O)[C@H](CO)NC(=O)[C@H](CCC(N)=O)NC(=O)[C@@H](NC(=O)[C@H](Cc1ccccc1)NC(=O)[C@@H](NC(=O)[C@H](C)NC(=O)[C@H](CC(=O)O)NC(=O)[C@@H](C)NC(=O)CCc1ccc(O)cc1)[C@@H](C)CC)[C@@H](C)O)C(C)C)[C@@H](C)CC)C(=O)N[C@@H](CC(=O)O)C(=O)N[C@H](CCCNC(=N)N)C(=O)NC	GH release	rat, male, serum	subcutaneous, dose not given, 15 and 30 min	reference: reference GHRH agonist JI-38	relative potency	1 to 4 fold
CCCCCCOC(=O)Cc1c(C)n(C(=O)c2ccc(Cl)cc2)c2ccc(OC)cc12	hot plate test	BALB/c mice	50 mg/kg, 60 min		latency of nociceptive response	13.9 ± 1.32 s
CC[C@H](C)[C@H](NC(C)=O)C(=O)N[C@H]1CSCC[C@@H](C(=O)N(C)[C@H](C(N)=O)[C@@H](C)CC)NC(=O)[C@H](CCCNC(=N)N)NC(=O)[C@H](Cc2c[nH]cn2)NC(=O)[C@H](C)NC(=O)CN(C)C(=O)[C@H](Cc2c[nH]c3ccccc23)NC(=O)[C@H](CC(=O)O)NC(=O)[C@H](CCC(N)=O)NC(=O)[C@H](Cc2cn(C)c3ccccc23)NC(=O)[C@H](C(C)C)NC1=O	classical complement activation, ELISA C3b deposition	normal human plasma		reference: parent disulfide-linked peptide	IC50 ratio	2
COc1ccc(C2CC(c3ccc(C)cc3)=Nc3ccccc3S2)cc1OC (stereo not shown)		Wistar rat, STZ-induced diabetes, serum	20 mg/kg, 28 days		total cholesterol	133 mg/dL
Cc1cc(O)c(C=O)c2c1C(=O)Oc1c(CO)c(O)c3c(c1O2)C(O)OC3=O (stereo not shown)		rat, male, streptozotocin-induced diabetes, testis	oral, 5 mg/kg, 9 weeks		relative organ weight	0.63 ± 0.03 g

For quick reference, copied from above:
SMILES	test	test system	conditions	scale	measurement	value
[2H]C([2H])([2H])C(c1cc2nnc(-c3cc(F)ccc3F)n2nc1OCc1ncnn1C)(C([2H])([2H])[2H])C([2H])([2H])[2H]		amygdala-kindled Wistar rats, cortex	oral, 100 mg/kg, 2 h before stimulation	reference: baseline	afterdischarge duration change	-76%
O=C1/C(=C/c2ccc(O)cc2)Oc2c1c(O)cc(O)c2-c1ccc(O)c(O)c1	ABTS scavenging, absorbance				EC50	1080 µM
C=C(c1ccc(C(=O)O)c(F)c1)c1cc2c(cc1C)C(C)(C)C=CC2(C)C	RNA sequencing, measured: Mpeg1	rat, brain	dose not given, 24 h	reference: vehicle	log2 fold change	-0.4
